Published values of several laboratories.
Protocols differ between the studies behind these lines. ± marks the error that the study gave.
Aminopeptidase N: Aminopeptidase N (Neisseria meningitidis, UniProt Q9JYV4)
CPL: CPL (Toxoplasma gondii, UniProt Q6DMN0)

Structure (SMILES) | target | assay | system | conditions | how to read | measurement | value
CC(C)C[C@H](NC(=O)[C@H](C)NC(=O)[C@H](C)NC(=O)[C@H](C)NC(=O)[C@H](C)NC(=O)[C@@H](NC(=O)[C@H](CC(C)C)NC(=O)[C@H](CCCCN)NC(=O)[C@H](CCC(=O)O)NC(=O)[C@@H](NC(=O)[C@H](CO)NC(=O)CN)C(C)C)[C@@H](C)O)C(=O)N[C@@H](CCC(N)=O)C(=O)N[C@@H](CCCNC(=N)N)C(=O)N[C@@H](CC(C)C)C(=O)N[C@@H](CCCCN)C(=O)N[C@@H](CC(N)=O)C(=O)N[C@@H](CCC(=O)O)C(=O)N[C@@H](CCCNC(=N)N)C(=O)N[C@@H](Cc1c[nH]cn1)C(=O)N[C@@H](CCC(=O)O)C(=O)N[C@@H](CCC(=O)O)C(=O)N[C@@H](C)C(=O)N[C@@H](CCC(=O)O)C(=O)N[C@@H](CC(C)C)C(=O)N[C@@H](CCC(=O)O)C(=O)N[C@@H](CCCNC(=N)N)C(=O)N[C@@H](CC(C)C)C(=O)N[C@@H](CCCCN)C(=O)N[C@@H](CO)C(=O)N[C@@H](CCC(=O)O)C(=O)N[C@@H](Cc1ccc(O)cc1)C(=O)O | Plasminogen (PLG, Homo sapiens, UniProt P00747, C188G/E240D/L256Y) | binding, SPR |  | pH 7.4 |  | kon | 261000 M⁻¹ s⁻¹
NC(=O)Cc1cc(=O)oc2cc(NC(=O)[C@@H](N)CCO)ccc12 | Aminopeptidase N | enzyme activity, substrate |  | pH 7.5, 37 °C |  | Km | 79.2 ± 6.9 µM
CC(=O)NC(Cc1ccc(Br)c(Cl)c1)C(=O)N[C@@H](C)C(=O)N1CCC[C@H]1C(=O)N1CCC[C@H]1C(=O)N[C@@H](CCC(=O)O)C(=O)N[C@@H](Cc1c[nH]cn1)C(=O)N[C@@H](CO)C(=O)N[C@H](C(=O)N[C@@H](C)C(N)=O)[C@@H](C)OP(=O)(O)O (some centres unmarked) | SYK (Homo sapiens, UniProt P43405) | enzyme activity, inhibitor |  | 10 µM |  | inhibition | 0.03%
O=C(CCCC[C@@H]1SC[C@@H]2NC(=O)N[C@@H]21)NCCCCCCCCN1[C@H]2[C@H](O)[C@@H](O)[C@H](O[C@@H]3OC[C@@H](O)[C@H](O)[C@H]3O)C[C@H]21 (some centres unmarked) | Probable endo-1,4-beta-xylanase C (xlnC, Aspergillus niger, UniProt C5J411) | activity-based probe binding, competitive inhibitor, in-gel fluorescence | Aspergillus niger, xylan-induced secretome | concentration not given, band near 30 kDa, added: Cy5 xylobiose activity-based probe |  | probe labelling | inhibited
CCOC(=O)/C(C#N)=C/c1cccc(C(N)=O)c1 | Genome polyprotein, 3C protease (Human enterovirus D68, UniProt Q68T42, C1641Y/I1565V/I1594T/R1603K/Y1579H) | ITC | enterovirus D68 | 25 °C, added: DTT 10 mM |  | -TΔS | 20.9 kJ/mol
CC(=O)N[C@H]1C(O)O[C@H](CO)[C@@H](O[C@@H]2O[C@H](CO)[C@H](O)[C@H](O)[C@H]2O)[C@@H]1O (some centres unmarked) | Galectin-3 (LGALS3, Homo sapiens, UniProt P17931) | binding, isothermal titration calorimetry |  |  |  | –ΔG | 6.1 kcal/mol
O=C(O)/C=C/c1ccc(O)cc1 | ACHE (Homo sapiens, UniProt P22303) | inhibitor |  | 250 µg/mL |  | inhibition | 65.9 ± 1.4%
CC(C)(C)C[C@H](N)C(=O)Nc1ccc2c(CC(N)=O)cc(=O)oc2c1 | Aminopeptidase N | enzyme activity, substrate |  | pH 7.5, 37 °C |  | Km | 61 ± 1.6 µM
Nc1nc2c([C@@H]3O[C@@H]4COP(=O)(O)O[C@H]5[C@@H](O)[C@H](n6cnc7c(=O)[nH]c(N)nc76)O[C@@H]5COP(=O)(O)O[C@H]4[C@H]3O)snc2c(=O)[nH]1 | rocR (Pseudomonas aeruginosa, UniProt Q9HX69) | substrate, HPLC |  | 10 µM, added: 100 nM enzyme |  | cleavage rate constant k2 | 3.07 ± 0.25 s⁻¹
N[C@@H](Cc1ccccc1)P(=O)(O)O | PAL1 (Petroselinum crispum, UniProt P24481, Y110F) | isothermal titration calorimetry |  | concentration not given | relative to: wild type minus Y110F | ΔΔG binding | -0.7 kcal/mol
CCNC(=O)c1cc(Cc2ccccc2)cc2c1NCCC2NC(=O)C(N)Cc1c(C)cc(O)cc1C (centres unmarked) | Oprd1 (Rattus norvegicus, UniProt P33533) | GTPγS binding, antagonist |  | added: SNC80 |  | Ke | 25.4 nM
COC(=O)c1ccccc1CN(CCC(C)C)c1nc(C#N)nc(N2CCOCC2)n1 | CPL | enzyme activity, inhibitor |  |  | relative to: human over Toxoplasma IC50 | selectivity ratio | 0.7
CC(C)(C)n1ccc(C(=O)N2CCN(c3nc4ccccc4s3)CC2)c1 | hh, C-terminal autoprocessing domain (Drosophila melanogaster, UniProt Q02936) | inhibitor |  | 25 µM |  | kmax | 0.00029 s⁻¹
C/C=C1/CN2CCc3c([nH]c4ccccc34)[C@@H]2C[C@@H]1/C(=C\OC)C(=O)OC | HTR1A (Homo sapiens, UniProt P08908) | agonist |  |  | relative to: 5-HT | maximal effect | ~40%
CCCCn1c2ccccc2c2cc(C(=O)c3cccc4ccccc34)ccc21 | CNR1 (Homo sapiens, UniProt P21554) | GTPγS binding, agonist |  | cell membranes |  | Emax | 163%
CC(C)P(=S)(NP(=S)(C(C)C)C(C)C)C(C)C | Alpha-amylase (Bacillus subtilis, UniProt P00691) | fluorescence quenching |  | concentration not given, 298 K |  | number of binding sites | 0.77 ± 0.08
CCN(Cc1ccccc1)C(=O)CCc1nc(CN2CCN(C(=O)Cc3ccc(OC)c(OC)c3)CC2)no1 | KCNQ4 (Homo sapiens, UniProt P56696) | potassium current, whole-cell patch clamp | CHO, stable | 100 nM |  | activation V1/2 | -28.3 ± 0.82 mV
CCCCN(Cc1ccc(F)cc1)c1nc(C#N)nc(N2CCOCC2)n1 | CPL | enzyme activity, inhibitor |  |  | relative to: human over Toxoplasma IC50 | selectivity ratio | 0.22
CCCCCCCCNP(=O)(Oc1ccccc1)O[C@@H]1O[C@H](CO)[C@@H](O)[C@H](O)[C@H]1F (some centres unmarked) | GBA1 (Homo sapiens, UniProt P04062) | enzyme activity, irreversible inhibitor |  | pH 5.5, 37 °C, added: 2,4-dinitrophenyl beta-D-glucopyranoside |  | kinact/Ki | 416 min⁻¹ mM⁻¹
CC(=O)NCC(=O)N[C@@H](CO)C(=O)N[C@@H](CCCCNP(=O)(O)O)C(=O)NCC(=O)NCC(N)=O | Phospholysine phosphohistidine inorganic pyrophosphate phosphatase (LHPP, Homo sapiens, UniProt Q9H008) | substrate |  | 100 µM, pH 7.8 |  | initial velocity | 6.46e-09 M/s
O=c1c(O)c(-c2cc(O)ccc2O)oc2cc(O)cc(O)c12 | Cholinesterase (BCHE, Homo sapiens, UniProt P06276) | enzyme activity, inhibitor, Ellman |  | 1000 µg/mL |  | inhibition | 82.2%
CC[C@@H](C)[C@@H](NC(=O)[C@@H](CC(N)=O)NC(=O)[C@@H](CC(N)=O)NC(=O)[C@H](N)CCCNC(N)=O)C(=O)N1C[C@@H](n2cc([C]34[CH]5[CH]6[CH]7[CH]3[Fe]6754389%10[CH]4[CH]3[CH]8[CH]9[CH]4%10)nn2)C[C@H]1C(=O)N[C@@H](Cc1csc2ccccc12)C(=O)N[C@H](CO)C(N)=O (some centres unmarked) | env (Human immunodeficiency virus type 1 group M subtype B, UniProt P35961) | ITC |  | concentration not given, pH 7.4, 25 °C |  | binding enthalpy | -14.6 ± 1.7 kcal/mol
C=C(C)C(=O)Oc1ccc(C(C)(C)c2ccc(OC(=O)C(=C)C)cc2)cc1 | Androgen receptor (AR, Homo sapiens, UniProt P10275) | reporter gene, antagonist | CHO | added: 0.1 nM R1881 |  | LOEC | 2.5 µM

For quick reference, copied from above:
Structure (SMILES) | target | assay | system | conditions | how to read | measurement | value
Nc1nc2c([C@@H]3O[C@@H]4COP(=O)(O)O[C@H]5[C@@H](O)[C@H](n6cnc7c(=O)[nH]c(N)nc76)O[C@@H]5COP(=O)(O)O[C@H]4[C@H]3O)snc2c(=O)[nH]1 | rocR (Pseudomonas aeruginosa, UniProt Q9HX69) | substrate, HPLC |  | 10 µM, added: 100 nM enzyme |  | cleavage rate constant k2 | 3.07 ± 0.25 s⁻¹
N[C@@H](Cc1ccccc1)P(=O)(O)O | PAL1 (Petroselinum crispum, UniProt P24481, Y110F) | isothermal titration calorimetry |  | concentration not given | relative to: wild type minus Y110F | ΔΔG binding | -0.7 kcal/mol
CCNC(=O)c1cc(Cc2ccccc2)cc2c1NCCC2NC(=O)C(N)Cc1c(C)cc(O)cc1C (centres unmarked) | Oprd1 (Rattus norvegicus, UniProt P33533) | GTPγS binding, antagonist |  | added: SNC80 |  | Ke | 25.4 nM
